Experimental data pooled from the literature.
Parts stem from different laboratories: compare values within a part only. Several values in a cell are separate wells, animals, samples, runs or records.
UniProt Q16659, sequence (whole entry, looked up): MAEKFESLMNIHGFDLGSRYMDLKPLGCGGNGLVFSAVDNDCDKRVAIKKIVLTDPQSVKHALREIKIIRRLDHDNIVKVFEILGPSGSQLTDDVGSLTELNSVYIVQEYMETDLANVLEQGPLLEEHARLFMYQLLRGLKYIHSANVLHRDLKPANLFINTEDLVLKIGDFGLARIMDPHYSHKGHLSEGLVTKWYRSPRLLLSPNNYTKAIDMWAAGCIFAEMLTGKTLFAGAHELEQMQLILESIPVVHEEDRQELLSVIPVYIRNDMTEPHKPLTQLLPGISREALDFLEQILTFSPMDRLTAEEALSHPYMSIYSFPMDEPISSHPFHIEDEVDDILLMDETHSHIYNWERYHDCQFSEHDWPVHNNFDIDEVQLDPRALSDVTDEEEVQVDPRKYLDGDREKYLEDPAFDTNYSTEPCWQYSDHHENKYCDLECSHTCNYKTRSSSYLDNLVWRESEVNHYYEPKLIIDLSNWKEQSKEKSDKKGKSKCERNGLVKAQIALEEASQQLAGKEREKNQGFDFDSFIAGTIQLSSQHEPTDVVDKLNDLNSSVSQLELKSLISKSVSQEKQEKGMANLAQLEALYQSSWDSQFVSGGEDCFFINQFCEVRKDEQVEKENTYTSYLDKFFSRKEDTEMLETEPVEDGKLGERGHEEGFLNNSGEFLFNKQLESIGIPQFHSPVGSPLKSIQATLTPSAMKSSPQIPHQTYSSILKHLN
UniProt P42336, sequence (whole entry, unmodified, looked up): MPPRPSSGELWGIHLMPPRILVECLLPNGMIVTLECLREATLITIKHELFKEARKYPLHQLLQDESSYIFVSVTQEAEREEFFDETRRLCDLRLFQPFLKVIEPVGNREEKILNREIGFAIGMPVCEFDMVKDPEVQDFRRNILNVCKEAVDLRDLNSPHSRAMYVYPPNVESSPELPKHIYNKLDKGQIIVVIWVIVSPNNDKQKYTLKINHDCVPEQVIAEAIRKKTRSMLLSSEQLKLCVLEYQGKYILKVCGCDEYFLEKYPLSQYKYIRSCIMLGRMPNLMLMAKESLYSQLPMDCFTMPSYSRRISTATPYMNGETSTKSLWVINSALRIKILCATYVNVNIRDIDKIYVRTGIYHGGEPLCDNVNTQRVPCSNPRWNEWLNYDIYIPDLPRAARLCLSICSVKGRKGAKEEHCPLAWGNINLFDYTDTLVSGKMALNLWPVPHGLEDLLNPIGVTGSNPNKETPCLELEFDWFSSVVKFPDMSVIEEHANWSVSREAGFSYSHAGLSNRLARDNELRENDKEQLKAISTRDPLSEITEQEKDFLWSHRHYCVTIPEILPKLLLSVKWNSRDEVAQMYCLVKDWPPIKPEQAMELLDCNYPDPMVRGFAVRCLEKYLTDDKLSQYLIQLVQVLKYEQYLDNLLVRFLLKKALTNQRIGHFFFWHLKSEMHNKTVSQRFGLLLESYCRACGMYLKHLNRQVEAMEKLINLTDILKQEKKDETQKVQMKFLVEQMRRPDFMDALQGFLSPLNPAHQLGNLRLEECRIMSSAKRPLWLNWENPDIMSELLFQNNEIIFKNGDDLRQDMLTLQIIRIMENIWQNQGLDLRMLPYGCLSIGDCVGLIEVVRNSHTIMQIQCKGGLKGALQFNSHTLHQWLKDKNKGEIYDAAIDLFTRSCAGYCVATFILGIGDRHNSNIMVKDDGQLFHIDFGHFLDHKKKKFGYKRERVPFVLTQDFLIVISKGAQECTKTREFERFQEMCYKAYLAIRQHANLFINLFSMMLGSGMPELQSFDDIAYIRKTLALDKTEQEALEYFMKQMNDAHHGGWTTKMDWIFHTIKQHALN

Block 1
SMILES: C=CC(=O)N1CCC[C@@H](n2nc(-c3ccc(Oc4ccccc4)cc3)c3c(N)ncnc32)C1
Action: inhibitor
Concentration: 1 µM
target | observed | inhibition
CSNK1A1L (Homo sapiens, UniProt Q8N752) | enzyme activity | 13%
MAP2K4 (Homo sapiens, UniProt P45985) |  | 0%
GRK3 (Homo sapiens, UniProt P35626) | enzyme activity | 8%
PDGFRB (Homo sapiens, UniProt P09619) | enzyme activity | 59%
Ribosomal protein S6 kinase alpha-2, kinase domain 2 (RPS6KA2, Homo sapiens, UniProt Q15349) |  | 13%
MAPK6 (Homo sapiens, UniProt Q16659) | enzyme activity | 0%
GAK (Homo sapiens, UniProt O14976) | enzyme activity | 10%
MAPK14 (Homo sapiens, UniProt Q16539) | enzyme activity | 7%
ULK1 (Homo sapiens, UniProt O75385) | enzyme activity | 21%
PIK3CA (Homo sapiens, UniProt P42336, M1043I) | enzyme activity | 18%

Block 2
Target: DNA polymerase theta, ATPase domain (POLQ, Homo sapiens, UniProt O75417)
UniProt O75417, sequence (whole entry, unmodified, looked up): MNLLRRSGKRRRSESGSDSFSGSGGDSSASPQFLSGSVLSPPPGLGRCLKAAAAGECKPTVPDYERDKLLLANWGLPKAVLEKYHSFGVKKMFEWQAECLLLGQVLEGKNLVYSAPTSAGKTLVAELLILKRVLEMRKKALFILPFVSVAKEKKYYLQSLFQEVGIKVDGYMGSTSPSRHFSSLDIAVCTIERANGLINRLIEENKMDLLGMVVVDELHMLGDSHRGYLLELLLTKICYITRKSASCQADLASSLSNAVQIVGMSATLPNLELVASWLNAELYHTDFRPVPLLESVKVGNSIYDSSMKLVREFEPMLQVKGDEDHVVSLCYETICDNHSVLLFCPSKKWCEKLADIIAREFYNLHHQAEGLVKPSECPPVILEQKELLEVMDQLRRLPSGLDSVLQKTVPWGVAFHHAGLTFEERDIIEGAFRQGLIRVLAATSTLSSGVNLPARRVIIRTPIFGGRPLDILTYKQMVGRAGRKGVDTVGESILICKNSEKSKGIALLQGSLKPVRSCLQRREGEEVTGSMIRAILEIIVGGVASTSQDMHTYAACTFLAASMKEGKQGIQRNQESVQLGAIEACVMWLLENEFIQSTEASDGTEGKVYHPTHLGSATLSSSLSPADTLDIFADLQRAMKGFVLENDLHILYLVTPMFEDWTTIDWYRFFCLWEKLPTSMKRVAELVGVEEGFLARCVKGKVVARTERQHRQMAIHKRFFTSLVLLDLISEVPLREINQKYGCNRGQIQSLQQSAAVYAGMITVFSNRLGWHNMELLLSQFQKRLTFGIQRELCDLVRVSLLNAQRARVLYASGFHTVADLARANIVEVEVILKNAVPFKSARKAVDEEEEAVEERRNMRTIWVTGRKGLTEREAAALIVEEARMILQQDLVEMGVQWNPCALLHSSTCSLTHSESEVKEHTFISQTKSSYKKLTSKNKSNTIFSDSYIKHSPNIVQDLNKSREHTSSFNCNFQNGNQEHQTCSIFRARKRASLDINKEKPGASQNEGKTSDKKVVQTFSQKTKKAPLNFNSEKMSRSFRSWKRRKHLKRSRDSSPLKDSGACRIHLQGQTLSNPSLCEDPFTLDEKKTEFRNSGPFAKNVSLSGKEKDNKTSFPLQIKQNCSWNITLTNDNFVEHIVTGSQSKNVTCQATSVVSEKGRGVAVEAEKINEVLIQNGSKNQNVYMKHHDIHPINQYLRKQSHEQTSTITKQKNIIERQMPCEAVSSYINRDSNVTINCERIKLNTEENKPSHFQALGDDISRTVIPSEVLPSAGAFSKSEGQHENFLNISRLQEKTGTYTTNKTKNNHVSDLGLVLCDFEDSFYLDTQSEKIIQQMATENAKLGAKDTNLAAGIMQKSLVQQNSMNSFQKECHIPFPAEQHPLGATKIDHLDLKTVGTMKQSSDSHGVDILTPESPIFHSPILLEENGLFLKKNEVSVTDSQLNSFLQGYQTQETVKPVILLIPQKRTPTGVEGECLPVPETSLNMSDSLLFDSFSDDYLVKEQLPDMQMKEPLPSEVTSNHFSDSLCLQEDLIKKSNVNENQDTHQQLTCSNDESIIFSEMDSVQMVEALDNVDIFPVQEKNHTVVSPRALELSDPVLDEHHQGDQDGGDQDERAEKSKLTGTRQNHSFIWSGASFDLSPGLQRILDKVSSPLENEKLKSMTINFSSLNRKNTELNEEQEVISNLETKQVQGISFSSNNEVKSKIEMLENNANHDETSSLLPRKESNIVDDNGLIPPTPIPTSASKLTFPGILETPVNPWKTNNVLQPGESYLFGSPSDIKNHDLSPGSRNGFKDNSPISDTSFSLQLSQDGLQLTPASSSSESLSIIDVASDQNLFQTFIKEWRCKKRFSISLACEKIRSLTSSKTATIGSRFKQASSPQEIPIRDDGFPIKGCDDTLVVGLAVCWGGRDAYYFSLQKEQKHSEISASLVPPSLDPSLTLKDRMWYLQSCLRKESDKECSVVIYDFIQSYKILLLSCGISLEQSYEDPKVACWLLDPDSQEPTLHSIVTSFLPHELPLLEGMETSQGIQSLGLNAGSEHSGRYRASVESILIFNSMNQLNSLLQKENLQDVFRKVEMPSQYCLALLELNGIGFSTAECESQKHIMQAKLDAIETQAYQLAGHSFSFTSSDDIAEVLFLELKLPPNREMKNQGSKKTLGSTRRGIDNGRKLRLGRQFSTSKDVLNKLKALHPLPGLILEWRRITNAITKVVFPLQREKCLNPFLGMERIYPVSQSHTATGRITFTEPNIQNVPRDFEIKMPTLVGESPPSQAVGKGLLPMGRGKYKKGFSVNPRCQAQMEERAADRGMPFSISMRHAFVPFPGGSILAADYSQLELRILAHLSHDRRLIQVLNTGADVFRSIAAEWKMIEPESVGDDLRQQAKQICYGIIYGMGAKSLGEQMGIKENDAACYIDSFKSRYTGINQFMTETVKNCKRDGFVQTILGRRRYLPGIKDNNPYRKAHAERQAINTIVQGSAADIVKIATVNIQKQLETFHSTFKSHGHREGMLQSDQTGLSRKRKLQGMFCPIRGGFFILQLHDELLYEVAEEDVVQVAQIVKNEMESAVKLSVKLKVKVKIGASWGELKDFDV
Observed: enzyme activity
Action: inhibitor
Concentration: 77 µM
Relative to: untreated
Structure (SMILES) | remaining activity
CCC[C@H](N[C@@H](C)C(=O)N1[C@H](C(=O)O)C[C@@H]2CCCC[C@@H]21)C(=O)OCC | 89.2%
Nc1[nH]nc2nc3ccccc3nc12 | 105%
COc1ccc(Cn2ccc3ccc(C(=O)NO)cc32)cc1 | 103%
CN1CCN(c2nc3cc(C(F)(F)F)ccc3n3cccc23)CC1 | 109%
CN1C(C(=O)Nc2ccccn2)=C(O)c2sc(Cl)cc2S1(=O)=O | 86%
CCOC(=O)OC(C)OC(=O)[C@@H]1N2C(=O)[C@@H](NC(=O)[C@H](N)c3ccccc3)[C@H]2SC1(C)C (some centres unmarked) | 111%
Nc1cc(Cl)c(N=C2NCCN2)c(Cl)c1 | 91.5%
Cc1[nH]c(/C=C2\C(=O)Nc3ccccc32)c(C)c1CCC(=O)O | 109%
CCCCCCCN(CC)CCCC(O)c1ccc(NS(C)(=O)=O)cc1 (centres unmarked) | 95.4%
Nc1nccs1 | 97.1%
Cc1ccc(C)c(OCCCC(C)(C)C(=O)O)c1 | 97.2% and 102%

Block 3
SMILES: CCCOc1ccc([C@@H]2[C@@H](C(=O)O)[C@H](c3ccc4c(c3)OCO4)CN2CC(=O)Nc2c(CC)cccc2CC)cc1
Observed: cell-free assay
Method: competition with immobilised ligand
Concentration: 1 µM
target | remaining binding
CDKL3 (Homo sapiens, UniProt Q8IVW4) | 95%
STK17B (Homo sapiens, UniProt O94768) | 93%
EGFR (Homo sapiens, UniProt P00533, L858R) | 87%
EIF2AK2 (Homo sapiens, UniProt P19525) | 100%
PRKD3 (Homo sapiens, UniProt O94806) | 86%
ALK (Homo sapiens, UniProt Q9UM73) | 100%
SBK1 (Homo sapiens, UniProt Q52WX2) | 81%
MAP3K13 (Homo sapiens, UniProt O43283) | 75%
DMPK (Homo sapiens, UniProt Q09013) | 86%
Ribosomal protein S6 kinase alpha-5, C-terminal kinase domain (RPS6KA5, Homo sapiens, UniProt O75582) | 97%
Aurora kinase A (AURKA, Homo sapiens, UniProt O14965) | 94%
MAPK15 (Homo sapiens, UniProt Q8TD08) | 100%
BTK (Homo sapiens, UniProt Q06187) | 72%
SYK (Homo sapiens, UniProt P43405) | 100%
MAPKAPK5 (Homo sapiens, UniProt Q8IW41) | 87%

Block 4
Target: Calcium/calmodulin-dependent protein kinase type II subunit alpha (CAMK2A, Homo sapiens, UniProt Q9UQM7)
UniProt Q9UQM7, sequence (whole entry, looked up): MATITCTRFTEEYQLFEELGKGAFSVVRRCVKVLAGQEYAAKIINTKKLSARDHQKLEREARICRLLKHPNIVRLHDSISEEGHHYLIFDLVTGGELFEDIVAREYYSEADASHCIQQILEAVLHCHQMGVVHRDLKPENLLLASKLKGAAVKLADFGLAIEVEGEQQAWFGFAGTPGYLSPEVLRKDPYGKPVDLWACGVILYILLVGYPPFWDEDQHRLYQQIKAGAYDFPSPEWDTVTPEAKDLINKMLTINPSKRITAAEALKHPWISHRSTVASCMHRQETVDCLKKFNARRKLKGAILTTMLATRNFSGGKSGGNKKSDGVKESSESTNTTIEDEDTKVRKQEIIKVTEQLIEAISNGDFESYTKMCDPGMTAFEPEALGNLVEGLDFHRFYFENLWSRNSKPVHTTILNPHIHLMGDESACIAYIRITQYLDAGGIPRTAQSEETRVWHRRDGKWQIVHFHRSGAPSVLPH
Observed: enzyme activity
Action: inhibitor
Concentration: 0.5 µM
Relative to: control
SMILES | remaining activity
CCN(CC)CCCCN1c2ccccc2Oc2ccc(Cl)cc21 | 104%
Clc1ccc(Nc2nnc(Cc3ccncc3)c3ccccc23)cc1 | 93.2%
N#C/C(=C(/N)SC1C=CC=CC1)c1cccc(C(O)c2ccncc2)c1 (centres unmarked) | 118%
O=C1c2ccccc2-c2nc3nnnn3nc21 | 84.7%
O=C1NC(=O)/C(=C/c2ccc3c(c2)OC(F)(F)O3)S1 | 96.8%
CC(C)N(CCC(=O)c1ccc2ccccc2c1)Cc1ccccc1 | 106%
COc1cc2c(N3CCN(C(=O)Nc4ccc(OC(C)C)cc4)CC3)ncnc2cc1OCCCN1CCCCC1 | 101%
CC(C)n1cnc2c(Nc3cccc(Cl)c3)nc(NCCO)nc21 | 99.1%
CCCCc1c(-c2ccc(O)cc2)[nH]c2nccnc12 | 97.8%
N#CC(c1ccnc(NCCc2cccnc2)n1)c1nc2ccccc2s1 (centres unmarked) | 105%
O=C(O)/C=C/c1cc(Br)c(Br)c(Br)c1Br | 64.4%
C[C@@H](N)[C@H]1CC[C@H](C(=O)Nc2ccncc2)CC1 | 100%
O=c1c(-c2ccc(F)cc2)c(-c2ccncc2)[nH]n1-c1ccc(Cl)cc1 | 86.9%
FC(F)(F)c1ccc(/C=C/c2nc(COc3ccc(CCCCn4ccnn4)cc3)co2)cc1 | 101%
COc1cc2c(Nc3ccc(Br)cc3F)ncnc2cc1OCC1CCN(C)CC1 | 99.8%
NC(=O)c1cccc(-c2cc(Nc3ccc(OC(F)(F)F)cc3)ncn2)c1 | 102%
Nc1nc(Nc2ccc(S(N)(=O)=O)cc2)nn1C(=S)Nc1c(F)cccc1F | 14.3%
NC(=O)c1ccc(-c2nc(-c3ccc4c(c3)OCCO4)c(-c3ccccn3)[nH]2)cc1 | 102%
c1cc(-c2cnn3cc(-c4ccc(OCCN5CCCCC5)cc4)cnc23)ccn1 | 69.1%
O=Nc1c(-c2c(O)[nH]c3ccccc23)[nH]c2ccccc12 | 50.2%
CC(C)(C)c1nc2c3cc[nH]c(=O)c3c3cc(F)ccc3c2[nH]1 | 35.1%
O=C(c1ccccc1)c1ccc(N2CCOCC2)cc1O | 105%
CNc1cc2c(Nc3cccc(Br)c3)ncnc2cn1 | 105%

Repeated from above (block 4):
SMILES | remaining activity
C[C@@H](N)[C@H]1CC[C@H](C(=O)Nc2ccncc2)CC1 | 100%
O=c1c(-c2ccc(F)cc2)c(-c2ccncc2)[nH]n1-c1ccc(Cl)cc1 | 86.9%
FC(F)(F)c1ccc(/C=C/c2nc(COc3ccc(CCCCn4ccnn4)cc3)co2)cc1 | 101%
COc1cc2c(Nc3ccc(Br)cc3F)ncnc2cc1OCC1CCN(C)CC1 | 99.8%
NC(=O)c1cccc(-c2cc(Nc3ccc(OC(F)(F)F)cc3)ncn2)c1 | 102%
Nc1nc(Nc2ccc(S(N)(=O)=O)cc2)nn1C(=S)Nc1c(F)cccc1F | 14.3%
